Measurements of several laboratories.
Protocols differ between the studies behind these lines.

The t1/2 of `O=C(Nc1cnccc1Cl)N1CCN(Cc2ccc3c(c2)OC(F)(F)O3)CC1` is reported as 11 h (healthy young men, plasma; oral, 25 mg once daily, day 10).
`CCN(CC)CCNC(=O)c1cc(S(C)(=O)=O)cnc1OC` gave a t1/2 of roughly 121 h (human liver microsomes; 2 µM, pH 7.4, approximate).
The t1/2 of `CC(C)[N+](C)(CCOC(=O)C1c2ccccc2Oc2ccccc21)C(C)C` is reported as 0.35 h (human plasma; plasma stability).
`COc1cnc(NS(=O)(=O)c2ccc(N)cc2)nc1` gave a t1/2 of roughly 126 h (human liver microsomes; 2 µM, pH 7.4, approximate).
`C[C@H](NC(=O)[C@H](C)NC(=O)[C@H](CCCNC(=N)N)NC(=O)[C@@H]1CCCN1C(=O)[C@H](CCCNC(=N)N)NC(=O)CNC(=O)c1ccc2c(c1)C(=O)OC21c2ccc(O)cc2Oc2cc(O)ccc21)C(=O)N[C@H](C(=O)N[C@@H](Cc1ccccc1)C(=O)N[C@@H](C)C(=O)N[C@@H](CCC(=O)O)C(=O)NCC(N)=O)[C@@H](C)O` gave a t1/2 of 0.0833 h (CE-MS; HeLa cell lysate; 37 °C).
For `C[C@H]1CN(C(=O)CC#N)[C@]12CCN(c1ncnc3[nH]ccc13)C2`, the t1/2 was 2.2 h (healthy adults, plasma; oral, 1.5 mg single dose, mean).
For `C[C@@H](NC(=O)N1C(=O)[C@H](Cc2ccnc(N)c2)[C@H]1C(=O)O)C1CCCCC1`, the t1/2 was 1.39 h (UPLC-MS/MS; healthy adult Chinese volunteers, plasma; continuous intravenous infusion, 2.25 mg/kg/h, day 6 of 5-day infusion, mean).
For `CCC1=C(CC)/C(=C/N[C@H]2CC[C@H](C)CC2)N=C1c1ccc[nH]1`, the t1/2 was 0.388 h (pooled human liver microsomes; 1 µM, pH 7.4).
With `C[C@@H](N)C1CCN(S(=O)(=O)c2cccc3cnccc23)CC1` the t1/2 was 1.26 h (healthy volunteers, fasted, plasma; oral, 150 mg).
`CCc1nc(C(N)=O)c(Nc2ccc(N3CCC(N4CCN(C)CC4)CC3)c(OC)c2)nc1NC1CCOCC1` gave a t1/2 of 159 h (LC-MS/MS; relapsed/refractory AML patients, plasma; oral, 300 mg once daily, cycle 1 day 15, median, from accumulation ratio).

A few entries again:
`COc1cnc(NS(=O)(=O)c2ccc(N)cc2)nc1` gave a t1/2 of roughly 126 h (human liver microsomes; 2 µM, pH 7.4, approximate).
